Measurements from different studies.
Each numbered part is a random draw from the data of one study; scales do not carry over between parts.
UniProt Q8S8P5, sequence (169-264, looked up): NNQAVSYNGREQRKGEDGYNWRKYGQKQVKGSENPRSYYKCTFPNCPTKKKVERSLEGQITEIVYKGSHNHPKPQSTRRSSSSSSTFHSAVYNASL

Set 1 — effect on: enzyme activity; action: inhibitor; concentration: 20 µM; measurement: inhibition
Target: Replicase polyprotein 1ab, polymerase (rep, Severe acute respiratory syndrome coronavirus 2, UniProt P0DTD1)
CCC(c1ccccc1)c1c(O)c2ccccc2oc1=O (stereo not drawn): 4.16%
CC(=O)O[C@H]1CC[C@@]2(C)C(=CC[C@@H]3[C@@H]2CC[C@]2(C)C(c4cccnc4)=CC[C@@H]32)C1: -6.44%
CC(C)=CCC/C(C)=C/CC/C(C)=C/CSc1ccccc1C(=O)O: -4.58%
CCOC(=O)NNc1nncc2ccccc12: 15.3%
COc1ccc(Cl)c(Nc2ncnc3cc(OCC4CCN(C)CC4)c(OC)cc23)c1: 1.25%
c1ccc2c(Oc3nc(Nc4ccc(N5CCOCC5)cc4)c4ncn(C5CCCCC5)c4n3)cccc2c1: -2.65%
CC[C@]12C=CCN3CC[C@@]4(c5cc([C@@]6(C(=O)OC)C[C@@H]7C[C@@H](C(C)(F)F)CN(Cc8c6[nH]c6ccccc86)C7)c(OC)cc5N(C)[C@H]4[C@@](O)(C(=O)OC)[C@@H]1OC(C)=O)[C@@H]32: 16.1%
N[C@@H]1CCCN(c2c(/C=C3\SC(=O)NC3=O)cccc2-c2ccccc2)C1: -11.1%
[NH-]c1c[n+](N2CCOCC2)no1: 0.09%
CC(=O)N1N=C(c2ccc(N)cc2)c2cc3c(cc2C[C@H]1C)OCO3: 3%
CCN1CCCC1=O: -6.08%
Nc1nccc2c1ncn2[C@@H]1O[C@H](CO)[C@@H](O)[C@H]1O: -2.33%
CC(=O)CC(c1ccccc1)c1c(O)c2ccccc2oc1=O (stereo not drawn): 1.53%
C/C(O)=C(\C#N)C(=O)Nc1cc(Br)ccc1Br: 35.3%
CC(C)OC(=O)N[C@H]1Cc2c(n(Cc3ccccn3)c3ccc(C#N)cc23)C1: 3.24%
CC(O)c1cc(C(=O)N[C@@H](C)Cn2ccc(-c3ccc(C#N)c(Cl)c3)n2)n[nH]1 (stereo partly drawn): 9.64%
COCCN1CCN(Cc2ccc(-c3n[nH]c4c3C(=O)c3c(NC(=O)NN5CCOCC5)cccc3-4)cc2)CC1: 10.1%
CC(N)CCCC(C)(C)O (stereo not drawn): -1.79%
CN[C@H]1CN(c2ccc3c(=O)c(C(=O)O)cn(-c4nccs4)c3n2)C[C@@H]1OC: 0.04%
N[C@@H](CSCC(=O)O)C(=O)O: -2.68%
NCCC(O)(P(=O)(O)O)P(=O)(O)O: -3.92%
COc1cc(OC)c(NC(=O)Nc2cc(C)on2)cc1Cl: 1.27%
NC(=O)c1ccc(-c2nc(-c3ccc4c(c3)OCCO4)c(-c3ccccn3)[nH]2)cc1: 4.08%
c1ccc2c(c1)Sc1ccccc1N2C[C@@H]1CN2CCC1CC2: 12.2%

Set 2 — method: RNA Bind-n-Seq; form: RNA; matrix: in vitro; concentration: 365 nM; reference: no-protein control; reading: higher = stronger binding; measurement: RBNS enrichment (R)
Target: RNA binding protein fox-1 homolog 2, RRM domain, GST-SBP tag (RBFOX2, Homo sapiens, UniProt O43251-10, residues 100-194)
Notes: natural RNA segment, single round, ends assumed
Constant ends, left off below: GGGAGUUCUACAGUCCGACGAUC … UGGAAUUCUCGGGUGCCAA
Construct (chain): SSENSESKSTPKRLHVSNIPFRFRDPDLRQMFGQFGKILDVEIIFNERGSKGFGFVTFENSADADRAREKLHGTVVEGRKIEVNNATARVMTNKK
GUUUGAAGAGAAACCUCCGGUGUGAGAUAUACAAAUAUAUUUAAUUGUGUCAUAUUAAACUUCUGAUUCACAUUCAGGUGGUCUUUAUUUGGGGAGGAGGAACAAUUGUU: 0.668
UCACCCUAUGGCCUGAGUCCAAUCCCUAGAACUGUGGUUUCCUCCAGUGUGACUUGUCCUGAUCAGGUAGAGAGAGCUUGUGGUCAUAUUCCCCAAUGGGCAUGCCUGUG: 0.807
CUUUUUUUAACAAUGAGCAUGAAGGUAGCAGAAGCUGGUGUGUUUCCAGAUGGUUCUUCUAACCAAACUAAUUUUUCACUGUUGACAAGCGAGGCAAGGGUUGCACUGGA: 1.8
GUGCCUUAUGCUUUCAUUGGACCAGCUGAAAUCACUGUAUUUAUUCAACUAGUGAUUUUUUUUUCUUUCUCACUUUAACUUAAAGAGAAUUUUAUAUGUCUUGGAAAUUU: 1.32
CACAGGGACCCAGUGCAGAAUCUCCAGCCUUAAUUCUUGCUUCAGGACCCAAACCAGCGCCUCACUCUAGGGUAGCCCAGGGCGCAGGUGCCAGGUCUGCCUAGCGUUUA: 0.303
GUGGAGGAUUCGGAACAAGUCAUGGAGAGACUGUCCGGGUCCGCUCCUUGUGAACUGUGCAGAAGGAGUGAUCCCAGCAUCGGCAAGCGAGGGAGAAGACUGCACGAGAG: 1.75
ACAGAAACGCCUUAAGACACUAUGUUUGGGAAUAUAGGAAACUAUGUGUGUCCCAAGGAAAUCCCUGUAAAUUUAACUCACCUACAAAAGGCUUUUUCCCCGCCUUUGGU: 0.414
AUAUUUCAAUUGACAAACCAGCAGGACAUAUGAAAAAUGCUUCAGUGAUGUGGUCCAUUAUAAGAUAAGUACACAAAAAUUUUCUUGAAAAAUAUUGUAUGAUUGCAUAG: 0.544

Set 3 — method: EMSA with sequencing; form: double-stranded DNA, one strand shown; matrix: in vitro; concentration: 10 and 20 nM; reference: negative control set to 0; reading: higher = stronger binding; measurement: normalised bound fraction
Target: Hepatocyte nuclear factor 3-alpha (Foxa1, Mus musculus, UniProt P35582, residues 1-468, full length assumed)
Notes: whole designed probe, mean of two concentrations, ends assumed
Constant ends, left off below: GTGAGCGGTGCCCATTGATGGGGAAC … TTTCACTGGGATCGTGGGGAC
Residues (chain): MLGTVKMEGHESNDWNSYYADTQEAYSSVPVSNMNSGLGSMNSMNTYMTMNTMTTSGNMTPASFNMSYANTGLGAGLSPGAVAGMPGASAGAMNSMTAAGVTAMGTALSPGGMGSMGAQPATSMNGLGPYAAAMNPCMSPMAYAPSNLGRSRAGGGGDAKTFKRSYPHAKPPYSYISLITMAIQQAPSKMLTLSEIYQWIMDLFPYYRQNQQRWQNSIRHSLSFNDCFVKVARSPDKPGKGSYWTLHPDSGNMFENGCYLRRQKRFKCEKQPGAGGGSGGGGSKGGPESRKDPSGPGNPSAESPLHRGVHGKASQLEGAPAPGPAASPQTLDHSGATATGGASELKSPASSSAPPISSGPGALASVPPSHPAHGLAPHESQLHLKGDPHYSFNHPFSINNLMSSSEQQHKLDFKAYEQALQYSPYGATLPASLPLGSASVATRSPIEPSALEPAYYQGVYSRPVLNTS
AACTATTATAAATAACAATTACAGAGGCGTATCAAAAAGGCTTTTAATTGAAGAGTATTTACAATTAAATTATAACAGAAAGAATACTGTAAAAGTAAACAAGTAAGTTCTTTTTGAAAAACAGGAATGTGTAACATTCAAAAAGACCACAAAAATTAATTTCTGTGTTACAGAATATTGAGAAATCCTATTC: 0.41 ratio
GTCCATCACCATTATTTATTTTTAAAGCTGCTGAAAAGTGTAAGCCACCGCTTGATTTTGCCTTTCAAAAAAGGGGAAAGAACCCAAATTCAATGTAAATATGGAAAGACCAGCATTGTTTCCACTTGGGCGAAGGCAGACACCCCAATCTGGGCAAAATTGATTCGGGTGGTTGTTGGAAAAAGCAGCTTTC: 0.134 ratio
AACACCAAACATAATTTAAAGATTTAATATACAAGTGTCTTGTTAGAAATAAAAACTTTCAGGGGGGTAATAAGGAAAAGAGATTGAATGCAAAGTAAACAAGCAATTTTGCTAAACAGTGACAATTACATCAACCTGACTTAAAGCAAAAGACTTTGTTTGCTGTGTGTATATATATATACCTACAGATATA: 0.494 ratio
GGTGGGATGGCTGCCCGGTAGAGACCGCCACCCAGACTCCCAGTTGCAGCTTCCTGCTGGGCCACATGGATGTTGTTAGGTTAGTGTTTTAGAGTCATCTAGGCCTAAACAGATCTATCATTTCCATTTCTCTAATTAGTTCCCTAATTTTATTACTGATATCATTATACTTCCTCTTACTCTGGTTCAAAAG: -0.0159 ratio
ATCTTCCCCCTCTTCCTTGCCCCACCAGCTCACCTTCCAGCGTTCTGTGAGTTAAAGGAAATAAATAAAGCCGGCATTCGTTAACCCTCTTCTGGCGCAAACTGCTGTTTGCTCTGGATGAATCATGGTCCTTTGGCGACGCCAGGCTCCGGGAGAGCAAAGCACCGTGTCAGGGCCATGATCCGGGGTGGCC: 0.236 ratio
GCGTCCCCGCCCAGGGCAAAGCCAGGACAAGGCCTTATATATAGGCCAGGAGAGGGGAGGGCGGTGGCTCTCTGCTGGGCCGCCAGACGGAAGGTAATCTGCGCCGGGGACTGGTAGCTCCTGTCTCCAGGCAGGAATGCACAGGCCGCGCCTGAGGCAGGTGCGTCCCCAGGGAGGGTTCTGCCCTCTGAAG: -0.0877 ratio

Set 4 — cell line: HEK-293T; effect on: pseudovirus infection; method: FDA-approved drug library screen; organism: VSV pseudotyped with SARS-CoV-2 spike; concentration: 10 µM; time: 16 h; reference: vehicle-treated; measurement: GFP-positive cells
CCOc1ccc2ccccc2c1C(=O)N[C@@H]1C(=O)N2[C@@H]1SC(C)(C)[C@@H]2C(=O)O: 75.7%
CC(C)c1nc(CN(C)C(=O)N[C@H](C(=O)N[C@@H](Cc2ccccc2)C[C@H](O)[C@H](Cc2ccccc2)NC(=O)OCc2cncs2)C(C)C)cs1: 48.3%
Nc1ccn([C@@H]2CS[C@H](CO)O2)c(=O)n1: 118%
c1ccc2[nH]c(-c3cscn3)nc2c1: 77.8%

Set 5 — effect on: enzyme activity; action: inhibitor; concentration: 20 µM; notes: hit confirmation, no DTT; measurement: inhibition
Target: Replicase polyprotein 1ab, main protease (rep, Severe acute respiratory syndrome coronavirus 2, UniProt P0DTD1)
Oc1ccc(C2CNCCc3c2cc(O)c(O)c3Cl)cc1 (stereo not drawn): 99%
O=[N+]([O-])c1ccc(O)c2ncccc12: 55.3%
O=c1cc(-c2ccc(O)cc2)oc2cc(O)cc(O)c12: 97.5%

Single results of other studies — method: DNA-protein interaction ELISA; form: double-stranded DNA, one strand shown; matrix: in vitro, bacterial lysate; concentration: not given; notes: whole dsDNA probe, crude lysate protein; reference: highest signal in screen; reading: higher = stronger binding
WRKY50 DNA-binding domain: Probable WRKY transcription factor 50, DNA-binding domain (WRKY50, Arabidopsis thaliana, UniProt Q8VWQ5, residues 99-173)
UniProt Q8VWQ5, sequence (99-173, looked up): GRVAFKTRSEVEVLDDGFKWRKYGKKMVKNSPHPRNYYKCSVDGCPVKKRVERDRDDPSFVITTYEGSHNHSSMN
AAAAAAATCCGATCGATGCATATATAAAA
relative absorbance (WRKY50 DNA-binding domain): 20.1 % of maximum

AAAAAATGCTATCCGTGTCTATGCCAAAAA
relative absorbance (Probable WRKY transcription factor 33, N-terminal DNA-binding domain (WRKY33, Arabidopsis thaliana, UniProt Q8S8P5, residues 169-264)): 18.1 % of maximum

AAAAAAGACACTCTAATTCCGTAGGCAAAA
relative absorbance (WRKY50 DNA-binding domain): 18.7 % of maximum

Some of these lines once more (set 1):
NCCC(O)(P(=O)(O)O)P(=O)(O)O: -3.92%
[NH-]c1c[n+](N2CCOCC2)no1: 0.09%
CCC(c1ccccc1)c1c(O)c2ccccc2oc1=O (stereo not drawn): 4.16%
CCN1CCCC1=O: -6.08%
